Published values gathered from unrelated publications.
Each line is one published result; not all experiments were run side by side. Numbers after ± are the reported error. In brackets after ≈: the same amount, converted by molar mass.

SMILES | organism | assay | test system | conditions | scale | quantity | result
CC(C=CC1(C)C(C)CCC(=O)C1C)=CCc1c(O)c(C=O)c(C)c(Cl)c1OC(=O)c1cccnc1 (centres unmarked) | Wickerhamomyces anomalus | O2 uptake, inhibitor | mitochondria | added: malate and pyruvate 15 mM | – | IC50 | 0.37 µM
C=CCc1ccc(O)c(OC)c1 | Cryptococcus neoformans | – | CN, PBS | 2 x MIC, up to 48 h, 37 °C | baseline: untreated | time to 1 log10 kill | 7 h
CC(C=CC1(C)C(C)CCC(=O)C1C)=CCc1c(O)c(C=O)c(C)c(Cl)c1OCC(=O)O (centres unmarked) | Wickerhamomyces anomalus | O2 uptake, inhibitor | mitochondria | added: duroquinol 1 mM | – | IC50 | 79.5 µM
CO/N=C(\N)c1ccc(-c2cncc(-c3ccc(/C(N)=N\OC)cn3)n2)nc1 | Trypanosoma brucei rhodesiense | – | STIB900, mouse, acute infection | oral, 25 mg/kg daily, 4 days, parasite-free survival 60 days | – | cured mice | 50%
CC1(C)S[C@@H]2[C@H](NC(=O)[C@H](N)c3ccc(O)cc3)C(=O)N2[C@H]1C(=O)O | Streptococcus pneumoniae | – | community-acquired pneumonia patients | Fine score below 70 | – | sensitive strains | 66.7%
O=C(Cn1ccnc1[N+](=O)[O-])NCc1ccccc1 | Trypanosoma cruzi | parasite growth | – | 72 h, epimastigote | – | IC50 | 9.5 µM
CO/N=C(\C(=O)N[C@@H]1C(=O)N2C(C(=O)O)=C(CSc3nc(=O)c(=O)[nH]n3C)CS[C@H]12)c1csc(N)n1 | Staphylococcus aureus | checkerboard broth microdilution | ATCC 27853 | added: ranalexin | – | FIC index | 1
O=C(Nc1ccc(NCc2ccc(F)cc2)cc1Cl)c1cc(Cl)ccc1O | human respiratory syncytial virus | infectious progeny production | A549 | 10 µM, 15 h | baseline: vehicle | virus titre log reduction | ~1.5 log10
C[C@@H](O)[C@H]1C(=O)N2C(C(=O)O)=C(S[C@@H]3CN[C@H](C(=O)N(C)C)C3)[C@H](C)[C@H]12 | Staphylococcus aureus | checkerboard broth microdilution | methicillin-susceptible isolate 56-96 | added: magainin II | – | FIC index | 0.375
O=C(/C=C/c1cccc(O)c1)c1ccc(Cl)cc1 | Plasmodium knowlesi | parasite growth | – | 24 h, blood stage | – | EC50 | 36.8 µM
Clc1nc(OCc2ccccc2)c2[nH]cnc2n1 | Helicobacter pylori | microbial growth, absorbance | 26695 | 95 µM | – | inhibition | ~35%
CC[C@H](C)[C@H](NC(=O)CNC(=O)[C@H](CCC(=O)O)NC(=O)[C@H](CO)NC(=O)[C@@H](NC(=O)[C@H](CCCNC(=N)N)NC(=O)[C@H](CCCCN)NC(=O)[C@H](CCCCN)NC(=O)[C@H](C)NC(=O)[C@H](CO)NC(=O)[C@H](CC(N)=O)NC(=O)[C@H](CCC(=O)O)NC(=O)[C@H](CC(C)C)NC(=O)[C@H](CCCCN)NC(=O)[C@H](CCCCN)NC(=O)[C@H](C)NC(=O)[C@@H](NC(=O)[C@H](CCCCN)NC(=O)[C@H](CO)NC(=O)[C@H](CC(C)C)NC(=O)[C@H](Cc1c[nH]c2ccccc12)NC(=O)[C@@H](N)CO)[C@@H](C)O)[C@@H](C)CC)C(=O)N[C@@H](C)C(=O)N[C@H](C(=O)N[C@@H](C)C(=O)N[C@H](C(=O)N[C@@H](CCC(N)=O)C(=O)NCC(=O)NCC(=O)N1CCC[C@H]1C(=O)N[C@@H](CCCNC(=N)N)C(=O)O)[C@@H](C)CC)[C@@H](C)CC | Escherichia coli | broth microdilution | – | 18 h, 30 clinical isolates | – | MIC range | 0.125 to 2 µg/mL (≈ 0.0374 to 0.599 µM)
Cc1ccc(S(=O)(=O)N2C(=O)CSC2c2cccc(Cl)c2)cc1 (centres unmarked) | Streptococcus pneumoniae | broth microdilution | ATCC 49619 | – | – | MIC | 8 µg/mL (≈ 21.7 µM)
C#CCNC(=O)C(=O)c1c(C)c(C(=O)Nc2ccc(F)c(F)c2)n(C)c1C | hepatitis B virus | viral replication, chemiluminescence immunoassay, item: secreted HBeAg | HBV-infected HepG2-NTCP cells | day 8 post-infection, daily from day 4 post-infection | – | EC50 | 32.1 µM
CO/N=C(\N)c1ccc(-c2cncc(-c3ccc(/C(N)=N\OC)nc3)n2)cn1 | Trypanosoma brucei rhodesiense | – | STIB900, mouse, acute infection | oral, 25 mg/kg daily, 4 days, parasite-free survival 60 days | – | cured mice | 25%
CC(C)(O/N=C(\C(=O)N[C@@H]1C(=O)N2C(C(=O)[O-])=C(C[n+]3ccccc3)CS[C@H]12)c1csc(N)n1)C(=O)O | Enterococcus faecalis | microbial growth, broth dilution | ATCC29212 | – | – | MIC | 256 µg/mL (≈ 468 µM)

SMILES | organism | assay | test system | conditions | scale | quantity | result
C[C@@H](NS(=O)(=O)c1ccc(F)c(C(=O)Nc2ccc(F)c(F)c2)c1)C1CC1 | hepatitis B virus | particle gel Southern blot | HepDES19 | 5 µM, 6 d | – | capsid-associated HBV DNA | decreased
N/C(=N\O)c1ccc(-c2cncc(-c3ccc(/C(N)=N\O)nc3)n2)cn1 | Trypanosoma brucei rhodesiense | – | STIB900, mouse, acute infection | oral, 10 mg/kg daily, 4 days, parasite-free survival 60 days | – | cured mice | 25%
CC[C@H]1OC(=O)[C@H](C)[C@@H](O[C@H]2C[C@@](C)(OC)[C@@H](O)[C@H](C)O2)[C@H](C)[C@@H](O[C@@H]2O[C@H](C)C[C@H](N(C)C)[C@H]2O)[C@](C)(O)C[C@@H](C)C(=O)[C@H](C)[C@@H](O)[C@]1(C)O | Streptococcus pneumoniae | – | community-acquired pneumonia patients | Fine score 70 or more | – | sensitive strains | 100%
C[C@@H]1CN(c2c(F)c(N)c3c(=O)c(C(=O)O)cn(C4CC4)c3c2F)C[C@H](C)N1 | Litomosoides sigmodontis | – | mouse | i.p., 25 mg/kg/day for 10 days | – | worm length reduction | 28.6%
C#CCn1cc(/C=C2\SC(=S)NC2=O)c2cc([N+](=O)[O-])ccc21 | Trypanosoma brucei rhodesiense | – | trypomastigotes, IL1501 | – | – | IC50 | 78 ± 2.9 µM
C[S+]([O-])c1ccc(-c2nc(-c3ccncc3)c(-c3ccc(F)cc3)[nH]2)cc1 (centres unmarked) | Enterovirus A71 | IRES reporter activity | RD | 2 µM, 2 h, added: 2A protease | – | inhibition | 32%
CC[C@H]1OC(=O)[C@H](C)[C@@H](O[C@H]2C[C@@](C)(OC)[C@@H](O)[C@H](C)O2)[C@H](C)[C@@H](O[C@@H]2O[C@H](C)C[C@H](N(C)C)[C@H]2O)[C@](C)(OC)C[C@@H](C)C(=O)[C@H](C)[C@@H](O)[C@]1(C)O | Staphylococcus aureus | checkerboard broth microdilution | clinical isolate 21-99 | added: magainin II | – | FIC index | 0.75
Cc1ccc(S(=O)(=O)N2C(=O)CSC2c2ccccc2F)cc1 (centres unmarked) | Streptococcus pneumoniae | broth microdilution | ATCC 49619 | – | – | MIC | 64 µg/mL (≈ 182 µM)
CC[C@H](C)[C@H](NC(=O)[C@H](CCCCN)NC(=O)[C@H](CCC(=O)O)NC(=O)[C@H](CCCCN)NC(=O)[C@H](CO)NC(=O)[C@H](CCCCN)NC(=O)[C@H](CCCNC(=N)N)NC(=O)[C@H](Cc1ccccc1)NC(=O)[C@H](Cc1ccccc1)NC(=O)[C@H](CC(=O)O)NC(=O)CNC(=O)[C@H](CC(C)C)NC(=O)[C@@H](N)CC(C)C)C(=O)NCC(=O)N[C@@H](CCCCN)C(=O)N[C@@H](CCC(=O)O)C(=O)N[C@@H](Cc1ccccc1)C(=O)N[C@@H](CCCCN)C(=O)N[C@@H](CCCNC(=N)N)C(=O)N[C@H](C(=O)N[C@H](C(=O)N[C@@H](CCC(N)=O)C(=O)N[C@@H](CCCNC(=N)N)C(=O)N[C@H](C(=O)N[C@@H](CCCCN)C(=O)N[C@@H](CC(=O)O)C(=O)N[C@@H](Cc1ccccc1)C(=O)N[C@@H](CC(C)C)C(=O)N[C@@H](CCCNC(=N)N)C(=O)N[C@@H](CC(N)=O)C(=O)N[C@@H](CC(C)C)C(=O)N[C@H](C(=O)N1CCC[C@H]1C(=O)N[C@@H](CCCNC(=N)N)C(=O)N[C@H](C(=O)N[C@@H](CCC(=O)O)C(=O)N[C@@H](CO)C(=O)O)[C@@H](C)O)C(C)C)[C@@H](C)CC)C(C)C)[C@@H](C)CC | hepatitis B virus | item: HBsAg in medium | HepG2-NTCP | 10 µM, continuous treatment | baseline: control treated | HBsAg level | decreased
CC(/C=C/[C@@]1(C)[C@H](C)CCC(=O)[C@@H]1C)=C\Cc1c(O)c(Cl)c(C)c(C=O)c1O | Wickerhamomyces anomalus | O2 uptake, inhibitor | mitochondria | added: glycerol 3-phosphate 20 mM | – | IC50 | 0.043 µM
C[C@H]1c2cccc(O)c2C(=O)C2=C(O)[C@]3(O)C(=O)C(C(N)=O)=C(O)[C@@H](N(C)C)[C@@H]3[C@@H](O)[C@@H]21 | Staphylococcus aureus | checkerboard broth microdilution | ATCC 27853 | added: ranalexin | – | FIC index | 0.25
Clc1nc(SCc2ccccc2)c2[nH]cnc2n1 | Helicobacter pylori | microbial growth, absorbance | 26695 | 40 µM | – | inhibition | 92%
Cc1ccc(S(=O)(=O)N2C(=O)CSC2c2ccccc2Br)cc1 (centres unmarked) | Streptococcus pneumoniae | broth microdilution | ATCC 49619 | – | – | MIC | 128 µg/mL (≈ 310 µM)
COc1c(Cl)c(C)c(C=O)c(O)c1C/C=C(C)/C=C/[C@@]1(C)[C@H](C)CCC(=O)[C@@H]1C | Wickerhamomyces anomalus | O2 uptake, inhibitor | mitochondria | added: succinate 15 mM | – | IC50 | 4.8 µM
O=C(Cc1ccc(Cl)c(Cl)c1)N1CCN(c2ccc3nncn3n2)CC1 | Cryptosporidium parvum | – | HCT-8 | corrected for mouse protein binding | – | EC90 | 0.036 µM
CC(=O)N1CCN(c2ccc(C(=O)N[C@H](Cc3c[nH]c4ccccc34)C(=O)Nc3ccncc3)c(F)c2)CC1 | Trypanosoma cruzi | – | Y luc, mouse | oral, 25 mg/kg twice daily, 4 days, 20% solutol vehicle | – | inhibition | 0%

A few entries again:
SMILES | organism | assay | test system | conditions | scale | quantity | result
CC1(C)S[C@@H]2[C@H](NC(=O)[C@H](N)c3ccc(O)cc3)C(=O)N2[C@H]1C(=O)O | Streptococcus pneumoniae | – | community-acquired pneumonia patients | Fine score below 70 | – | sensitive strains | 66.7%
O=C(Cn1ccnc1[N+](=O)[O-])NCc1ccccc1 | Trypanosoma cruzi | parasite growth | – | 72 h, epimastigote | – | IC50 | 9.5 µM
CO/N=C(\C(=O)N[C@@H]1C(=O)N2C(C(=O)O)=C(CSc3nc(=O)c(=O)[nH]n3C)CS[C@H]12)c1csc(N)n1 | Staphylococcus aureus | checkerboard broth microdilution | ATCC 27853 | added: ranalexin | – | FIC index | 1
O=C(Nc1ccc(NCc2ccc(F)cc2)cc1Cl)c1cc(Cl)ccc1O | human respiratory syncytial virus | infectious progeny production | A549 | 10 µM, 15 h | baseline: vehicle | virus titre log reduction | ~1.5 log10
C[C@@H](O)[C@H]1C(=O)N2C(C(=O)O)=C(S[C@@H]3CN[C@H](C(=O)N(C)C)C3)[C@H](C)[C@H]12 | Staphylococcus aureus | checkerboard broth microdilution | methicillin-susceptible isolate 56-96 | added: magainin II | – | FIC index | 0.375
